Measured values collected from several papers.
Each line is one published result; not all experiments were run side by side. Several values in a cell are separate wells, animals, samples, runs or records. ± gives the spread as reported.
Target: Beta-secretase 1 (BACE1, Homo sapiens, UniProt P56817)
Sequence of UniProt P56817 (whole entry, looked up): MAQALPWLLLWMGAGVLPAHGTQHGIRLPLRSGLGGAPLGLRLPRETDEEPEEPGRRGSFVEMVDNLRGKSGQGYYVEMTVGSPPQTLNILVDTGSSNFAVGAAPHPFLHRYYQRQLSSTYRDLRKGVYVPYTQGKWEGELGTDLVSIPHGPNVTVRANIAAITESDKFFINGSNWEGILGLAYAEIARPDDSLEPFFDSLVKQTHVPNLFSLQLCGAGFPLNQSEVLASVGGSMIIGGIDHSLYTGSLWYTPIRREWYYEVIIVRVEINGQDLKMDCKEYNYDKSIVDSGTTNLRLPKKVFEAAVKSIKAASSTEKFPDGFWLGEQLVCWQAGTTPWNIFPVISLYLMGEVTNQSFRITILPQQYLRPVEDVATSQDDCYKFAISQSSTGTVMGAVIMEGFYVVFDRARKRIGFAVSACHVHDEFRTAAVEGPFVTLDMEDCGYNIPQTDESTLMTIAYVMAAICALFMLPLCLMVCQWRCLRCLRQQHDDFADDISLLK

| Compound | assay | setting | quantity | value |
| --- | --- | --- | --- | --- |
| COc1cc(OC)c2c(O)c3c(cc2c1)OC(C)(O)CC3=O (centres unmarked) | enzyme activity, inhibitor, FRET | – | IC50 | > 100 µM |
| CO[C@H](C[C@H](O)[C@H](COc1cccc(OCc2ccccc2)c1)NC(=O)c1cccc(N(C)S(C)(=O)=O)c1)C(=O)N[C@H](C(=O)NCc1ccccc1)C(C)C | enzyme activity, inhibitor | pH 4.5 | IC50 | 2.2 µM |
| COC(=O)C1CCCN1C(=O)C(Cc1ccccc1)N(C)C(=O)CC(O)C(CC(C)C)NC(=O)C(CC(C)C)N(C)C(=O)C(CC(C)C)NC(=O)C(O)C(C)C (centres unmarked) | enzyme activity, inhibitor | pH 4.0, together with: fluorogenic peptide substrate | IC50 | > 100 µM |
| CC(C)=CCN=C(N)NCCC[C@@H](NC(=O)CCCc1ccc(O)cc1)C(=O)N[C@@H](Cc1ccccc1)C(O)CC(=O)N[C@@H](Cc1ccc(O)cc1)C(=O)O (stereo in doubt) | enzyme activity, inhibitor | – | IC50 | > 100 µM |
| CC(C)CNC(=O)[C@@H](NC[C@@H](O)[C@H](Cc1ccccc1)NC(=O)c1cc(C(=O)N(C)[C@H](C)c2ccccc2)cc(N(C)S(C)(=O)=O)c1)[C@H](C)O | – | – | Ki | 1.81 ± 0.194 µM |
| COc1cc(OC)c2c(c1)c(-c1c(O)cc3cc4oc(C)cc(=O)c4c(O)c3c1OC)c(O)c1c(=O)cc(C)oc12 | enzyme activity, inhibitor, FRET | – | IC50 | 70 µM |
| CCC[C@H](O)[C@H](NC[C@@H](O)[C@H](Cc1ccccc1)NC(=O)c1cc(C)cc(C(=O)N(C)[C@H](C)c2ccccc2)c1)C(=O)NCC(C)C | – | – | Ki | 0.563 µM and 0.564 µM |
| CC[C@H](C)[C@H](NC(=O)[C@H](Cc1ccccc1)C[C@H](O)[C@@H](N)COc1ccc(-c2ccc(F)cc2)c(OCCCOC)c1)C(=O)NCc1ccc(Cl)cc1 | enzyme activity, inhibitor | pH 4.5 | IC50 | 0.47 µM |
| Cc1cc(C(=O)N[C@@H](Cc2ccccc2)[C@H](O)CN[C@H](C(=O)NCC(C)C)[C@H](C)O)cc(C(=O)N(C)[C@H](C)c2ccccc2)c1 | – | – | Ki | 1.66 ± 0.0446 µM |
| CC[C@H](C)[C@H](NC(=O)[C@@H](C[C@H](O)[C@@H](N)COc1cccc(OCCCOC)c1)OC)C(=O)NCc1ccc(Cl)cc1 | enzyme activity, inhibitor | pH 4.5 | IC50 | > 10 µM |
| COc1cc(OC)c2c(O)c3c(=O)cc(C)oc3c(-c3c(OC)cc4cc5c(c(O)c4c3OC)C(=O)CC(C)(O)O5)c2c1 (centres unmarked) | enzyme activity, inhibitor, FRET | – | IC50 | 72.8 µM |

A few entries again:
| Compound | assay | setting | quantity | value |
| --- | --- | --- | --- | --- |
| CC[C@H](C)[C@H](NC(=O)[C@H](Cc1ccccc1)C[C@H](O)[C@@H](N)COc1ccc(-c2ccc(F)cc2)c(OCCCOC)c1)C(=O)NCc1ccc(Cl)cc1 | enzyme activity, inhibitor | pH 4.5 | IC50 | 0.47 µM |
